Assay results collected from several papers.
Lines come from different studies, so protocols differ. Numbers after ± are the reported error.

SMILES | system | setting | quantity | result
CN1C(=O)[C@@H](Cc2ccc(O)cc2)NC(=O)CNC(=O)[C@H](Cc2ccc3ccccc3c2)NC(=O)[C@H](CCCNC(=N)N)NC(=O)[C@H]1CCCNC(=O)c1ccc(CNC(=O)CN2CCN(CC(=O)O)CCN(CC(=O)O)CCN(CC(=O)O)CC2)cc1 [gallium-68 labelled] | adult reference man, from C57BL/6 mice data, urinary bladder contents | dose not given | time-integrated activity coefficient | 0.047 ± 0.005 MBq-h/MBq
N=C(N)NCCC[C@H](NC(=O)[C@@H]1CSSC[C@H](NC(=O)[C@H](Cc2ccc3ccccc3c2)NC(=O)[C@H](CCCNC(=N)N)NC(=O)[C@H](CCCNC(=N)N)NC(=O)CN2CCN(CC(=O)O)CCN(CC(=O)O)CC2)C(=O)N[C@@H](Cc2ccc(O)cc2)C(=O)N[C@@H](CCCNC(N)=O)C(=O)N[C@@H](CCCCN)C(=O)N[C@H](CCCCN)C(=O)N2CCC[C@H]2C(=O)N[C@@H](Cc2ccc(O)cc2)C(=O)N[C@@H](CCCNC(=N)N)C(=O)N[C@@H](CCCNC(N)=O)C(=O)N1)C(N)=O [gallium-68 labelled] | human patients | 5 mCi per scan | acquisitions per year | ≤ 14
N=C(N)NCCC[C@@H]1NC(=O)[C@H](CCCCNC(=O)CNC(=O)CNC(=O)CNC(=O)CC[C@H](NC(=O)CNC(=O)CNC(=O)CNC(=O)CN2CCN(CC(=O)O)CCN(CC(=O)O)CCN(CC(=O)O)CC2)C(=O)NCC(=O)NCC(=O)NCC(=O)NCCCC[C@@H]2NC(=O)[C@@H](Cc3ccccc3)NC(=O)[C@H](CC(=O)O)NC(=O)CNC(=O)[C@H](CCCNC(=N)N)NC2=O)NC(=O)[C@@H](Cc2ccccc2)NC(=O)[C@H](CC(=O)O)NC(=O)CNC1=O [indium-111 labelled] | female athymic nu/nu mice, spleen | intravenous, 111 kBq, 4 h | tissue uptake | 1.18 ± 0.2 %ID/g
CCCC[C@H](NC(=O)COCCOCCNC(=O)CN1CCN(CC(=O)O)CCN(CC(=O)O)CC1)C(=O)N[C@H]1CC(=O)NCCCC[C@@H](C(N)=O)NC(=O)[C@H](Cc2c[nH]c3ccccc23)NC(=O)[C@H](CCCNC(=N)N)NC(=O)[C@@H](Cc2ccccc2)NC(=O)[C@H](Cc2c[nH]cn2)NC1=O [copper-64 labelled] | C57 mice, tumor | intravenous, 0.37 MBq, 0.5 h | tissue uptake | 16.2 ± 0.42 %ID/g
Cc1cc(-c2ccc(NC(=O)[C@H](CCCCNC(=O)CCOCCOCCC(=O)N[C@H](Cc3ccccc3)C(=O)N[C@H]3CSSC[C@@H](C(=O)N[C@H](C(=O)O)[C@@H](C)O)NC(=O)[C@H]([C@@H](C)O)NC(=O)[C@H](CCCCN)NC(=O)[C@@H](Cc4c[nH]c5ccccc45)NC(=O)[C@H](Cc4ccc(O)cc4)NC3=O)NC(=O)CN3CCN(CC(=O)O)CCN(CC(=O)O)CCN(CC(=O)O)CC3)c(C)c2)ccc1N=Nc1ccc2c(S(=O)(=O)O)cc(S(=O)(=O)O)c(N)c2c1O [lutetium-177 labelled] | patients with metastatic NETs, whole body |  | residence time | 149 ± 15.1 h
C=C1CC[C@H](OCCCNC(=O)CCOCCOCCOCCOCCOCCOCCOCCOCCOCCOCCOCCOCCOCCOCCOCCOCCOCCOCCOCCOCCOCCOCCOCCOCCOCCOCCOCCOCCOCCOCCOCCOCCOCCOCCOCCOCCNC(=O)CCN2C(=O)CC(SC[C@H](NC(=O)[C@H](Cc3ccccc3)NC(=O)[C@H](CC(N)=O)NC(=O)[C@H](Cc3c[nH]cn3)NC(=O)[C@@H](NC(=O)[C@H](CC(=O)O)NC(=O)[C@H](CCC(N)=O)NC(=O)[C@H](CC(C)C)NC(=O)[C@H](CCCCN)NC(=O)[C@H](CCCCN)NC(=O)[C@H](CCCNC(=N)N)NC(=O)[C@H](CC(C)C)NC(=O)[C@H](Cc3c[nH]c4ccccc34)NC(=O)[C@H](CCC(=O)O)NC(=O)[C@@H](NC(=O)[C@H](CCCNC(=N)N)NC(=O)[C@H](CCC(=O)O)NC(=O)[C@H](CCSC)NC(=O)[C@H](CO)NC(=O)[C@H](CC(N)=O)NC(=O)[C@H](CC(C)C)NC(=O)[C@H](Cc3c[nH]cn3)NC(=O)[C@H](CCCCN)NC(=O)CNC(=O)[C@H](CC(C)C)NC(=O)[C@H](CC(N)=O)NC(=O)[C@H](Cc3c[nH]cn3)NC(=O)[C@H](CCSC)NC(=O)[C@H](CC(C)C)NC(=O)[C@H](CCC(N)=O)NC(=O)[C@@H](NC(=O)[C@H](CCC(=O)O)NC(=O)[C@H](CO)NC(=O)[C@@H](NC(=O)[C@@H](N)CO)C(C)C)[C@@H](C)CC)C(C)C)C(C)C)C(N)=O)C2=O)C/C1=C/C=C1\CCC[C@]2(C)[C@@H]([C@H](C)CCCC(C)(C)O)CC[C@@H]12 (some centres unmarked) | cynomolgus monkey | subcutaneous, 20 µg/kg every other day, 21 days | Cmax | 38.1 ng/mL
Cc1cc(-c2ccc(NC(=O)[C@H](CCCCNC(=O)CCN3C(=O)CC(SCCC(=O)N[C@H](Cc4ccccc4)C(=O)N[C@H]4CSSC[C@@H](C(=O)N[C@H](C(=O)O)[C@@H](C)O)NC(=O)[C@H]([C@@H](C)O)NC(=O)[C@H](CCCCN)NC(=O)[C@@H](Cc5c[nH]c6ccccc56)NC(=O)[C@H](Cc5ccc(O)cc5)NC4=O)C3=O)NC(=O)CN3CCN(CC(=O)O)CCN(CC(=O)O)CCN(CC(=O)O)CC3)c(C)c2)ccc1N=Nc1ccc2c(S(=O)(=O)O)cc(S(=O)(=O)O)c(N)c2c1O (some centres unmarked) [lutetium-177 labelled] | metastatic NET patients, liver metastases |  | residence time | 0.59 ± 0.08 h
N=C(N)NCCC[C@@H]1NC(=O)[C@H](CCCCNC(=O)CC[C@H](NC(=O)CC[C@H](NC(=O)CN2CCN(CC(=O)O)CCN(CC(=O)O)CCN(CC(=O)O)CC2)C(=O)N[C@@H](CCC(=O)NCCCC[C@@H]2NC(=O)[C@@H](Cc3ccccc3)NC(=O)[C@H](CC(=O)O)NC(=O)CNC(=O)[C@H](CCCNC(=N)N)NC2=O)C(=O)NCCCC[C@@H]2NC(=O)[C@@H](Cc3ccccc3)NC(=O)[C@H](CC(=O)O)NC(=O)CNC(=O)[C@H](CCCNC(=N)N)NC2=O)C(=O)NCCCC[C@@H]2NC(=O)[C@@H](Cc3ccccc3)NC(=O)[C@H](CC(=O)O)NC(=O)CNC(=O)[C@H](CCCNC(=N)N)NC2=O)NC(=O)[C@@H](Cc2ccccc2)NC(=O)[C@H](CC(=O)O)NC(=O)CNC1=O [indium-111 labelled] | female athymic nu/nu mice, intestine | intravenous, 72 h | tissue uptake | 3.37 ± 0.3 %ID/g

Some of these lines once more:
SMILES | system | setting | quantity | result
Cc1cc(-c2ccc(NC(=O)[C@H](CCCCNC(=O)CCN3C(=O)CC(SCCC(=O)N[C@H](Cc4ccccc4)C(=O)N[C@H]4CSSC[C@@H](C(=O)N[C@H](C(=O)O)[C@@H](C)O)NC(=O)[C@H]([C@@H](C)O)NC(=O)[C@H](CCCCN)NC(=O)[C@@H](Cc5c[nH]c6ccccc56)NC(=O)[C@H](Cc5ccc(O)cc5)NC4=O)C3=O)NC(=O)CN3CCN(CC(=O)O)CCN(CC(=O)O)CCN(CC(=O)O)CC3)c(C)c2)ccc1N=Nc1ccc2c(S(=O)(=O)O)cc(S(=O)(=O)O)c(N)c2c1O (some centres unmarked) [lutetium-177 labelled] | metastatic NET patients, liver metastases |  | residence time | 0.59 ± 0.08 h
